Published values from different studies.
± marks the error that the study gave.
Albumin: Albumin (Mus musculus, UniProt P07724)
Chain of UniProt P07724 (whole entry, looked up): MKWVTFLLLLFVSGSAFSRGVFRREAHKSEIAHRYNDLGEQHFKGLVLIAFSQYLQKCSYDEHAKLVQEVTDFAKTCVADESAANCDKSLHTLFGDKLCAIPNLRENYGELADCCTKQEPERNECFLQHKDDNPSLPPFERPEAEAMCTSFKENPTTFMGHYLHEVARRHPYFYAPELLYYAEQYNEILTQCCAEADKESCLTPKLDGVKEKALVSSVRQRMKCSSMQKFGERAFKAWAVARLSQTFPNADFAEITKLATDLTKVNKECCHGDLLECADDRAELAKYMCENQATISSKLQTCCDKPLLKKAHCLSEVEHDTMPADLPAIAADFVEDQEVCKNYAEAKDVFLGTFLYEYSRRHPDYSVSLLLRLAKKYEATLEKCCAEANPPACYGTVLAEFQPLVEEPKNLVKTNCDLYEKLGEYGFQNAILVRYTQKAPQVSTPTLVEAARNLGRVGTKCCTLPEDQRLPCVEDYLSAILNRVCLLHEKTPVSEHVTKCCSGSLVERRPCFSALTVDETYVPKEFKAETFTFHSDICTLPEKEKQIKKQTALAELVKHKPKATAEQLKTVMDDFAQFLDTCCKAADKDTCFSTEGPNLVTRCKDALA
CYP2C9: Cytochrome P450 2C9 (CYP2C9, Homo sapiens, UniProt P11712)
Chain of UniProt P11712 (whole entry, looked up): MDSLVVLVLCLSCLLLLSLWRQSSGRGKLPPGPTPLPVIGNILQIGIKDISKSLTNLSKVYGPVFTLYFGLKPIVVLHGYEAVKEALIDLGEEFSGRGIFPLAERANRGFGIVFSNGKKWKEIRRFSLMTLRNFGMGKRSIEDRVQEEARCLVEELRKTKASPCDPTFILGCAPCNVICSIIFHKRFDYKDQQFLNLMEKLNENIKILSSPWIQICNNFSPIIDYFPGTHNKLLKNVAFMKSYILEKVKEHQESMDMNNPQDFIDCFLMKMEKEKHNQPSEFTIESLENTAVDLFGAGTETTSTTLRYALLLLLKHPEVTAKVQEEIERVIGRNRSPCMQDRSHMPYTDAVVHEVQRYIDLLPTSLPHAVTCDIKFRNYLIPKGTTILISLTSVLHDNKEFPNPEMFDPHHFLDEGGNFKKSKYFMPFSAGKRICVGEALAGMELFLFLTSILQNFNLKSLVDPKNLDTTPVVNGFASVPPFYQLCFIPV
CYP2C19: Cytochrome P450 2C19 (CYP2C19, Homo sapiens, UniProt P33261)
Chain of UniProt P33261 (whole entry, looked up): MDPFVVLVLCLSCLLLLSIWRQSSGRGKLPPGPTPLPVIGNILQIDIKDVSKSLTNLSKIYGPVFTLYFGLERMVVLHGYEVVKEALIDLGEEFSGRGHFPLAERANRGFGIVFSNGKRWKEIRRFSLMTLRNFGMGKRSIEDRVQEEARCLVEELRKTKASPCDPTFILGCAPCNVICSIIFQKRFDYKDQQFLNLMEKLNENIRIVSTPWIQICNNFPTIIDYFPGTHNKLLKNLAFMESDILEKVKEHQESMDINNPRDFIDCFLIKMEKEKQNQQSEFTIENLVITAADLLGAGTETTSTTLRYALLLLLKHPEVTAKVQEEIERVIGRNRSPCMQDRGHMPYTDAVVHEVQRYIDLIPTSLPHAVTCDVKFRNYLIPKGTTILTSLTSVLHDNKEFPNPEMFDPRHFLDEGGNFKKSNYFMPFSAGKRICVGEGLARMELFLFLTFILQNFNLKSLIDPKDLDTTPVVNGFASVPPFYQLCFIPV
TDP1: Tyrosyl-DNA phosphodiesterase 1 (TDP1, Homo sapiens, UniProt Q9NUW8)
Chain of UniProt Q9NUW8 (whole entry, looked up): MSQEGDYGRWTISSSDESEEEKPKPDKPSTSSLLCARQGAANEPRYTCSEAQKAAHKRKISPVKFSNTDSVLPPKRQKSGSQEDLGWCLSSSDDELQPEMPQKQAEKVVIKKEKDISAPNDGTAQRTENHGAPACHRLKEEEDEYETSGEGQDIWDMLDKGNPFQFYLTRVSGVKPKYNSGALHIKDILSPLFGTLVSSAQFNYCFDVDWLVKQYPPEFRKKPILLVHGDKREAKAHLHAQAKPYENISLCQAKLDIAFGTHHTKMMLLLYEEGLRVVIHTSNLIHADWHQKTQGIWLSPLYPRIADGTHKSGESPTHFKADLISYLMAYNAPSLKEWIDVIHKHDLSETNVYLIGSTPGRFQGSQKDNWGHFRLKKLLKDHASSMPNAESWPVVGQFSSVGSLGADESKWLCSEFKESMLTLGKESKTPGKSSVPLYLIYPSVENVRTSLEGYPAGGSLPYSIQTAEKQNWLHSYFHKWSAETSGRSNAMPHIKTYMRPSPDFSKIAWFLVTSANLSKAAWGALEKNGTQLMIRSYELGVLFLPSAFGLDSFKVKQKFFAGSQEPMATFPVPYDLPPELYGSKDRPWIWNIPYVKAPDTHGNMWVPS
Chain of UniProt P10635 (whole entry, looked up): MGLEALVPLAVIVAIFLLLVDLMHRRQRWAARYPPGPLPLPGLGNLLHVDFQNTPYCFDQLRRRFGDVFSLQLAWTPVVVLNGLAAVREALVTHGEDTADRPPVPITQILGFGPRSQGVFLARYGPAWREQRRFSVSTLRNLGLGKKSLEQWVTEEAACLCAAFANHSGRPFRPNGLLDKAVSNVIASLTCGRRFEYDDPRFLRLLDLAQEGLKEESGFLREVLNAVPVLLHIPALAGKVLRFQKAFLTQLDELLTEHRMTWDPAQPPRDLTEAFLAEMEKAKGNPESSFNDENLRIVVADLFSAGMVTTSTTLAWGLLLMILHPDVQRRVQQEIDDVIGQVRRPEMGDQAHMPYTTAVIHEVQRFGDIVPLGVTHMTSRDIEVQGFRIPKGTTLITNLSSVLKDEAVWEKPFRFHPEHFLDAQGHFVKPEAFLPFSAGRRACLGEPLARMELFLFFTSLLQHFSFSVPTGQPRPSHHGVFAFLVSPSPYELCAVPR
Chain of UniProt P22310 (whole entry, looked up): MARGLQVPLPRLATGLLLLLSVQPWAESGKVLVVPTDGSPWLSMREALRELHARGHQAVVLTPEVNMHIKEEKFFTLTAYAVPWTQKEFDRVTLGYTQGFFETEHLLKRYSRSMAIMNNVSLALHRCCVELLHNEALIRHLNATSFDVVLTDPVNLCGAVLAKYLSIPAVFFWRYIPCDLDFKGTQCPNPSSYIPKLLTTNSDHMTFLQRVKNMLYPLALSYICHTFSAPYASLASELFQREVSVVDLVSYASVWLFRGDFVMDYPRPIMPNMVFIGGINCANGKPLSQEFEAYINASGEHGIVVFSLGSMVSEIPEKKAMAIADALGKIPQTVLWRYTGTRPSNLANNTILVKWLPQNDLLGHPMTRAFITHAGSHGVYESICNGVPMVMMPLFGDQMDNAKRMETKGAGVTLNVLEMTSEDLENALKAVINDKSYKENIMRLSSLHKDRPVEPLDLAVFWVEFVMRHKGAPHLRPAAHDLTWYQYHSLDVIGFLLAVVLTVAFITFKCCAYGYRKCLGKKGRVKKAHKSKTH

CNC(=O)C1CCCN(C(=O)C2CC3CCC2N3C(=O)[C@@H]2C[C@@H](O)CN2C(=O)NCc2cccc(Cl)c2F)C1 (mixture of isomers)  remaining activity (Cytochrome P450 2D6 (CYP2D6, Homo sapiens, UniProt P10635); enzyme activity, inhibitor, time-dependent inhibition; 5.56 µM, preincubated with NADPH; baseline: negative control): 131%
CN1CCN(c2ccc3[nH]c(-c4ccc5[nH]c(-c6ccc(OCCCCNC(=O)c7ccc8c(c7)C(=O)OC87c8ccc(N(C)C)cc8C(C)(C)c8cc(N(C)C)ccc87)cc6)nc5c4)nc3c2)CC1  Kd (Albumin; binding, fluorescence titration; PBS; 1 h): 14 ± 4 µM
O=C(CN1CN(c2ccc(Cl)c(Cl)c2)C2(CCN(C(=O)c3ccc4[nH]ncc4c3)CC2)C1=O)NCC(F)(F)F  IC50 (CYP2C9; enzyme activity, inhibitor): 600 nM
CN1CCN(c2ccc3[nH]c(-c4ccc5[nH]c(-c6ccc(OCCCCNC(=O)c7cccc8c7C(=O)OC87c8ccc(N(C)C)cc8C(C)(C)c8cc(N(C)C)ccc87)cc6)nc5c4)nc3c2)CC1  fluorescence quantum yield (Albumin; PBS; 1 µM, 1 h, with: 25 mg/mL albumin): 0.02 ± 0.003
CN(CC(F)(F)F)C(=O)CN1CN(c2ccccc2)C2(CCN(C(=O)c3ccc4[nH]ncc4c3)CC2)C1=O  IC50 (CYP2C9; enzyme activity, inhibitor): 2600 nM
CN1CCN(c2ccc3[nH]c(-c4ccc5[nH]c(-c6ccc(OCCCCNC(=O)c7ccc8c(c7)C(=O)OC87c8ccc(N(C)C)cc8[Si](C)(C)c8cc(N(C)C)ccc87)cc6)nc5c4)nc3c2)CC1  fluorescence quantum yield (Albumin; PBS; 1 µM, 1 h, with: 25 mg/mL albumin): 0.014 ± 0.005
C=CC(=O)Nc1cc(Nc2nccc(-c3cn(C)c4ccccc34)n2)c(OCC(F)(F)F)nc1N(C)CCNC  contribution to metabolite formation (CYP2C19; substrate; 3 µM, 60 min, 2C19 isoform, liver abundance-normalized): 0.27%
O=C(NS(=O)(=O)c1cccs1)c1cc2ccccc2n1Cc1ccc(Br)c2ccccc12  IC50 (CYP2C19; enzyme activity, inhibitor; human liver microsomes): 2030 nM
CN1CCOc2cc(C=NOCc3ccc(-c4nc5cc(-c6ccccc6)ccn5c4Nc4ccc(C(=O)O)cc4)cc3)cnc21  inhibition (TDP1; enzyme activity, inhibitor; 100 µM, unpurified compound): 94.2%
CCCCN1C(=O)c2cccc3c(N4CCN(C)CC4)ccc(c23)C1=O  contribution to metabolism (UGT1A4 (Homo sapiens, UniProt P22310); N-glucuronidation, substrate, relative activity factor; human, recombinant UGT, liver microsomes): 98.7%
N#CSCc1ccc(C=NOCc2ccc(-c3nc4cc(-c5ccccc5)ccn4c3Nc3ccc(C(=O)O)cc3)cc2)o1  inhibition (TDP1; enzyme activity, inhibitor; 100 µM): 101%
C=C(NC(=O)c1csc(-c2nc3c(cc2O)-c2nc(cs2)C(=O)NC(C(C)O)C(=O)NC(=C(C)OC)c2nc(cs2)C(=O)NC2c4nc(cs4)C(=O)NC(COC(=O)c4c5c6c(cccc6n4O)COC(=O)C(OC4CC(C)(O)C(N(C)C)C(C)O4)C2OC5)c2nc-3cs2)n1)C(N)=O (stereo not drawn)  mRNA level (CYP2B6; induction, item: CYP2B6 mRNA; primary human hepatocytes; NG, 3 days, 0.1% DMSO; baseline: vehicle): < 4 fold

Excerpt of the above:
O=C(CN1CN(c2ccc(Cl)c(Cl)c2)C2(CCN(C(=O)c3ccc4[nH]ncc4c3)CC2)C1=O)NCC(F)(F)F  IC50 (CYP2C9; enzyme activity, inhibitor): 600 nM
